# Assay results of several laboratories.
# Every numbered part comes from another study and shows a few of its results, in no order. Substitutions count along the parent as printed.

# Sample 1 — observed: binding; method: phage display NGS; form: peptide; notes: panning round 2; baseline: input library
# Target: UDP-N-acetylglucosamine--peptide N-acetylglucosaminyltransferase 110 kDa subunit (OGT, Homo sapiens, UniProt O15294)
# Chain of UniProt O15294 (whole entry, looked up): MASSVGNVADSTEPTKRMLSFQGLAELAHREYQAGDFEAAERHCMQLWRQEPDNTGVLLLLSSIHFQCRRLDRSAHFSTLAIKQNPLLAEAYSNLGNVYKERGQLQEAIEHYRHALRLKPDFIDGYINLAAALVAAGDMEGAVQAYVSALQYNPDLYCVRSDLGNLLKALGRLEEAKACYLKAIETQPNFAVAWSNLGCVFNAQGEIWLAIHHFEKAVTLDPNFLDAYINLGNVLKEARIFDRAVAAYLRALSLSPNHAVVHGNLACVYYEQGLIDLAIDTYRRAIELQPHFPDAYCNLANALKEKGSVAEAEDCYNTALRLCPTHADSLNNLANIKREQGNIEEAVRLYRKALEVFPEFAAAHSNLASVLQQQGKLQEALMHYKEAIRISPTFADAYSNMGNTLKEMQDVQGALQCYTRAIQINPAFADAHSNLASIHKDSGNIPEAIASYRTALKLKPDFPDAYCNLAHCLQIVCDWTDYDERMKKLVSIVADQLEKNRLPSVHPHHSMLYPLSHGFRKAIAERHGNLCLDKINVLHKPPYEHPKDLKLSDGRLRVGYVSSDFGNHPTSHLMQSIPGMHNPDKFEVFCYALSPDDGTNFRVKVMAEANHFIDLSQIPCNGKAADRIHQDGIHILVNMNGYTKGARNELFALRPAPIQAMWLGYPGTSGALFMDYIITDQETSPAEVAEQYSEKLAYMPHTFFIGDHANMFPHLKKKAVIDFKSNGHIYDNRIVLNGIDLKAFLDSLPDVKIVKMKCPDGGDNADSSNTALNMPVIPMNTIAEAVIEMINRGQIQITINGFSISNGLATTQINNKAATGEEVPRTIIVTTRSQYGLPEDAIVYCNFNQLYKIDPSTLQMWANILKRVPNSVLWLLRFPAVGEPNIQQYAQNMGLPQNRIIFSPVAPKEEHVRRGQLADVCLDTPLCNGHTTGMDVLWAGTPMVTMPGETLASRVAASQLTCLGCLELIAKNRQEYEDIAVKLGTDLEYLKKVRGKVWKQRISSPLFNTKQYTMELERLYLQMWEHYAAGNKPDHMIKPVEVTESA
Sequence,minimum log2 enrichment ratio
NTTAPQLVYPPMYQI,3.13
IHAGLEPKYQISYTY,6.66
MFMPHYQIIMSATES,6.51

# Sample 2 — method: RNA Bind-n-Seq; form: RNA; sample: in vitro; concentration: 20 nM; notes: 6-mer, flanks averaged, single round; with: 150 mM KCl; baseline: input library; direction: higher = stronger binding
# Target: TAR DNA-binding protein 43, full length, His tag (TARDBP, Homo sapiens, UniProt Q13148, residues 1-414)
Sequence,6-mer enrichment (R)
CCAGAA,0.709
GGCUUC,0.844
AGAAAG,1.02
CAACGG,1.09
GGACUU,0.9
GAGCGC,1.39
GAUUUG,0.814
GCAUAG,0.956

# Sample 3 — target: CCNE2, cyclin fold, Cln2 fusion (human); method: yeast growth competition, sequencing; sample: yeast; notes: weak parent motif; baseline: not given; direction: higher = stronger binding; parent: viral docking peptide; PGASRRLFGSSAD
Variant,normalised enrichment score
S4A,1.31
F8L,0.589
P1A,0.248
R5K F8L,0.538
G9A,1.71
S10A,0.276
R6A,-0.579

# Mixed results
# Parent: PafA, mature enzyme, eGFP fusion (Elizabethkingia meningoseptica, UniProt Q9KJX5); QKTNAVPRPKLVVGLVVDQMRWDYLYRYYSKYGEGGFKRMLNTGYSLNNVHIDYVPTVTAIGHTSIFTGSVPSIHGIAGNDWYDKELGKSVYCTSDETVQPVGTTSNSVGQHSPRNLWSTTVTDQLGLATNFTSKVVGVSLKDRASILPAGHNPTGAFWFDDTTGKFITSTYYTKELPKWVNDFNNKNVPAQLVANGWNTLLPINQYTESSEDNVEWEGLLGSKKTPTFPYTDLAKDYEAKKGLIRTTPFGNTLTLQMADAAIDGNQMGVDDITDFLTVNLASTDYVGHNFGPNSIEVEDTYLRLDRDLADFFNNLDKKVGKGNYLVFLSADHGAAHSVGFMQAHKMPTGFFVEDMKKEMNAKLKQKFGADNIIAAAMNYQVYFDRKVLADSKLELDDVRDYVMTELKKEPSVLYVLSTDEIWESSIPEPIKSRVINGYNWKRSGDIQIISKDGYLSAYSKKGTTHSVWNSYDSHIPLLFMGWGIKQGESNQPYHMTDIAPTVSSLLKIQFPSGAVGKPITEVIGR
Variant,target,test,system,setting,how to read,measurement,result
Y54G,"tungstate, free oxyanion",microfluidic competitive inhibition,"in vitro, cell-free expressed","not given, derived from inhibition constants, unchanged parent 2230 nM",lower = stronger binding,oxyanion analog dissociation constant,1.66 µM

# For quick reference, copied from above (sample 2):
Sequence,6-mer enrichment (R)
GGCUUC,0.844
